Measured values from different studies.
Lines come from different studies, so protocols differ. Numbers after ± are the reported error.

For `CC1(COc2ccc3c(c2)ncn3-c2ccc3cccc(N4CCC(N)CC4)c3n2)COC1`, the half-life was 5.9 h (human patients, recurrent/progressive HGG or DIPG, serum; oral, 170 mg/m^2, day 28, median).
`COc1cc(C(=O)NC2CCN(C)CC2)c(F)cc1Nc1ncc(C(F)(F)F)c(Oc2cccc3c2C(=O)N(C)C3)n1` gave a half-life of 18.8 h (human patients, plasma; oral, 10 mg single dose, geometric mean).
The half-life of `CCOc1c([C@H](C)n2nc(C)c3c(N)ncnc32)cc(Cl)c(F)c1[C@@H]1CNC(=O)C1` is reported as roughly 10 h (human, fasted, plasma; oral, dose not given, steady state, geometric mean).
The half-life of `CC(C)NC(=O)COc1cccc(-c2nc(Nc3ccc4[nH]ncc4c3)c3ccccc3n2)c1` is reported as roughly 10.4 h (human male, plasma; oral, 200 mg once daily, day 12, fed, geometric mean, together with: dabigatran etexilate).
`Cn1cncc1[C@@](N)(c1ccc(Cl)cc1)c1ccc2c(c1)c(-c1cccc(Cl)c1)cc(=O)n2C` gave a half-life of 1.5 to 12 h (human, plasma; oral, 300 mg/m^2, range, first dose).
`C[C@@H]1CCO[C@H]2Cn3cc(C(=O)NCc4ccc(F)cc4F)c(=O)c(O)c3C(=O)N12` gave a half-life of 11.3 h (human, normal renal function, plasma; oral, fixed-dose combination).
`O=C(COc1ccc(Cl)cc1)NC12CC(c3nnc([C@H]4C[C@@H](OC(F)(F)F)C4)o3)(C1)C2` has a half-life of 29.5 h (healthy human volunteers fasted, plasma; oral, 200 mg single dose, geometric mean).
For `CCN(CC)CCNC(=O)c1c(C)[nH]c(/C=C2\C(=O)Nc3ccc(F)cc32)c1C`, the half-life was 73.2 h (human patients, plasma; oral, cycle 1 day 15).
For `COc1ncc(-c2nc3c(n2C(C)C)[C@H](c2ccc(Cl)cc2)N(c2cc(Cl)cn(C)c2=O)C3=O)c(OC)n1`, the half-life was 13.9 h (human, plasma; oral, 120 mg, C2D1, high-dose, median).
The half-life of `COc1ccccc1OCC(O)CN1CCN(CC(=O)Nc2c(C)cccc2C)CC1` (centres unmarked) is reported as roughly 2 h (human; oral, 12 mg/kg/day).
The half-life of `N#CCNC(=O)c1ccc(-c2ccnc(Nc3ccc(N4CCOCC4)cc3)n2)cc1` is reported as 3.53 h (healthy human volunteers, plasma; oral, day 12, without rifampin).
With `CCN1CCN(Cc2ccc(Nc3ncc(F)c(-c4cc(F)c5nc(C)n(C(C)C)c5c4)n3)nc2)CC1` the half-life was 26.3 h (healthy human, fasted; oral, 150 mg, 3 x 50 mg capsules).
The half-life of `Cc1nc(Nc2ncc(C(=O)Nc3c(C)cccc3Cl)s2)cc(N2CCN(CCO)CC2)n1` is reported as 4.6 ± 0.8 h (human patients, plasma; oral, 85 mg/m^2, day 8).
`CN(C)C(=O)c1cc2cnc(Nc3ccc(N4CCNCC4)cn3)nc2n1C1CCCC1` has a half-life of 26.6 ± 14 h (human, advanced solid tumours, plasma; oral).
With `NCCCS(=O)(=O)O` the half-life was 10.1 h (human, plasma; oral, 256.5 mg once daily, day 1, capsule, fed).
For `Cc1noc(C)c1-c1cc(C(O)(c2ccccn2)c2ccccn2)c2nc(C3CC3)[nH]c2c1`, the half-life was 15.9 h (human patients, plasma; oral, 2 mg, cycle 1 day 8, monotherapy).
`[H]/N=C(/N)c1ccc(NCc2nc3cc(C(=O)N(CCC(=O)O)c4ccccn4)ccc3n2C)cc1` gave a half-life of 8.14 h (healthy human subjects, plasma; oral, 150 mg, dabigatran etexilate alone, arithmetic mean).
With `C#C[C@]1(COP(=O)(O)OP(=O)(O)O)O[C@@H](n2cnc3c(N)nc(F)nc32)C[C@@H]1O` the half-life was 138 h (refers to: islatravir triphosphate; human, PBMC; oral, 400 mg single dose).
With `C[C@H](Oc1ccc(Br)cc1-c1ccon1)C(=O)O` the half-life was 5.14 h (LC-MS/MS, non-compartmental; human, plasma; 200 mg once daily, day 10, multiple ascending dose, mean).
For `COc1ccc([C@@H](O)c2cc(-c3ncnc4cc(N5CCOCC5)ccc34)c(F)cc2Cl)nn1`, the half-life was 2.25 h (human, plasma; oral, 250 mg twice daily, single dose, geometric mean).
`Cc1nc2ccc(F)cc2n1-c1nc(N)c(F)c(Nc2ccc(C(F)(F)F)cc2)n1` has a half-life of 9.1 h (human patients, plasma; oral, 200 mg twice weekly, cycles 1 and 2 pooled).
`CO[C@H]1C[C@@H]2CC[C@@H](C)[C@@](O)(O2)C(=O)C(=O)N2CCCC[C@H]2C(=O)O[C@H]([C@H](C)C[C@@H]2CC[C@@H](OC(=O)NCCOCCOCCOCCOCCOCCOCCOCCOCCC(=O)N3CCc4cc(Cn5nc(-c6ccc7oc(N)nc7c6)c6c(N)ncnc65)ccc4C3)[C@H](OC)C2)C[C@@H](O)[C@H](C)/C=C(\C)[C@@H](O)[C@@H](OC)C(=O)[C@H](C)C[C@H](C)/C=C/C=C/C=C/1C` has a half-life of 7.9 h (human patients, plasma; intravenous, 16 mg, cycle 1 day 15).
`O=C(O)C[C@H](O)C[C@H](O)/C=C/c1c(C2CC2)nc2ccccc2c1-c1ccc(F)cc1` has a half-life of 2.8 h (OATP1B1/1B3 humanized mouse, plasma; oral, 5 mg/kg, together with: rifampin 20 mg/kg oral).
`C#C[C@]1(CO)O[C@@H](n2cnc3c(N)nc(F)nc32)C[C@@H]1O` gave a half-life of 51.2 h (human, plasma; oral, 15 mg, single dose, geometric mean).
With `CO[C@@H]1[C@H](OC(=O)N2CC(CCN3CCOCC3)C2)CC[C@]2(CO2)[C@H]1[C@@]1(C)O[C@@H]1CC=C(C)C` the half-life was 0.48 ± 0.63 h (humans, plasma; subcutaneous, 0.2 mg twice weekly, first dose).
The half-life of `Nc1ccn([C@@H]2O[C@H](CO)[C@@H](O)C2(F)F)c(=O)n1` is reported as 4.55 h (HPLC-UV; human, plasma; intravenous, 800 mg/m^2, mean, after paricalcitol).
With `CC#CC(=O)N1CC[C@@H](n2c(=O)n(-c3ccc(Oc4ccccc4)cc3)c3c(N)ncnc32)C1` the half-life was roughly 4.7 h (human, fasted, plasma; oral, 160 mg once daily, cycle 1 day 1).
The half-life of `Cc1nc(-c2ccc(OCC(C)C)c(C#N)c2)sc1C(=O)O` is reported as 6.56 h (human, plasma; oral, 20 mg once daily, geometric mean, together with: verinurad 5 mg).
`Cc1cc(OCCOCCC(F)(F)P(=O)(O)O)ccc1CCc1cnc2c(N)nc3cc(CCC(=O)O)ccc3c2c1` has a half-life of 18.4 h (human, serum; intratumoral, 200 µg every 2 weeks, cycle 1 day 1).
The half-life of `CN(C)CCC[C@@]1(c2ccc(F)cc2)OCc2cc(C#N)ccc21` is reported as 28.8 h (human; intramuscular).
`Fc1ccc([C@@H]2CCNC[C@H]2COc2ccc3c(c2)OCO3)cc1` gave a half-life of 20 h (human, CYP2D6 normal metabolizers; oral, 20 mg, steady state, geometric mean).
The half-life of `CC(C)c1nc(N(C)S(C)(=O)=O)nc(-c2ccc(F)cc2)c1/C=C/[C@@H](O)C[C@@H](O)CC(=O)O` is reported as 20.5 ± 5.08 h (human, plasma; oral, 10 mg, together with: vepdegestrant 200 mg).
The half-life of `C[C@@H](Cn1ccc(-c2ccc(C#N)c(Cl)c2)n1)NC(=O)c1cc([C@@H](C)O)[nH]n1` is reported as 6.58 h (human, fasted; oral, 300 mg 14C-darolutamide solution, geometric mean).
`C=CC(=O)N(C)CCOc1c(N)ncnc1-c1cc(F)cc(NC(=O)c2ccc(C3CC3)cc2F)c1C` has a half-life of 0.93 h (human, fed, whole blood; oral, 60 mg single dose, food effect study, median).
`C[C@H]1[C@@H](O)O[C@@H]2O[C@@]3(C)CC[C@H]4[C@H](C)CC[C@@H]1[C@@]24OO3` has a half-life of 1.59 h (human, both sexes, plasma; oral, dose not given, fixed-dose combination).
`CN(C(=O)C(C)(C)c1cc(C(F)(F)F)cc(C(F)(F)F)c1)c1cnc(N2C[C@H]3COCCN3C[C@H]2CO)cc1-c1ccc(F)cc1[14CH3]` gave a half-life of 37.1 h (LC-MS/MS; human, male, plasma; oral, 120 mg).
`OC[C@H]1O[C@@H](c2ccc(Cl)c(Cc3ccc(O[C@H]4CCOC4)cc3)c2)[C@H](O)[C@@H](O)[C@@H]1O` has a half-life of 6.68 ± 0.81 h (human, plasma; oral, steady state, EV treatment).
With `CC(C)[C@H](N)C(=O)NCCCS(=O)(=O)O` the half-life was 1.13 h (human, plasma; oral, 340 mg once daily days 8-14, day 14, fasted, capsule).
The half-life of `O=C(O)CCC(=O)O.[2H]C([2H])([2H])Oc1cc(C)c2[nH]ccc2c1CN1CC[C@@H](C2CC2)C[C@H]1c1ccc(C(=O)O)cc1` is reported as 26.6 h (human, plasma; 50 mg twice daily, day 10, multiple ascending dose, mean).
With `CCS(=O)(=O)Nc1ccc(Oc2ccc(F)cc2F)c(-c2cn(C)c(=O)c3[nH]ccc23)c1` the half-life was 14.8 ± 2.8 h (human, plasma; oral, 2.5 mg, cycle 1 day 8, harmonic mean).
With `NC(CO)(CO)CCc1ccc(Sc2cccc(OCc3ccccc3)c2)cc1Cl` the half-life was 126 h (human male, whole blood; oral, 3 mg, together with: cyclosporin 100 mg b.i.d.).
With `COC(=O)C(Cc1cccc(C)c1I)NC(=O)CNCc1ccccc1` (centres unmarked) the half-life was greater than 2 h (human; 1 µM).
`CCCCCCCOc1ccc(CCC(N)(CO)CO)cc1C(F)(F)F.Cl` has a half-life of 409 h (healthy human males, plasma; oral, 0.25 mg, day 21).
`N#Cc1cc(NC(=O)[C@H]2c3ccccc3C(=O)N(CC(F)(F)F)[C@@H]2c2cccnc2)ccc1F` has a half-life of 18.7 h (human, plasma; oral, 1200 mg, median).
For `NC(=O)c1[nH]cnc1N`, the half-life was 2.6 h (human patients, plasma; IV infusion over 1 h, 1000 mg/m^2 DTIC, cycle 2 day 1, staggered with co-drug).
The half-life of `Cc1cc(C)c(CNC(=O)c2cc(Cl)c3c(c2C)O[C@@](C)([C@H]2CC[C@H](N(C)C)CC2)O3)c(=O)[nH]1` is reported as 12.7 h (human male, plasma; oral, 200 mg, single dose, [14C]-labelled).
`CC(C)(Sc1ccncc1-c1ccc(C#N)c2ccccc12)C(=O)O` gave a half-life of 17.3 h (human, plasma; oral, 10 mg once daily, together with: febuxostat 40 mg).
